Experimental data of several laboratories.
Each line is one published result; not all experiments were run side by side. Numbers after ± are the reported error.

O=C1NC(=NCc2cccs2)S/C1=C\c1ccc2ncccc2c1 — IC50 (786-0 renal; cell growth, MTS): 7770 nM
CCCCN1C[C@H](O)[C@@H](O)[C@@H](O)[C@H]1CO — IC50 (sample A patient fibroblasts; Gb3 level lowering, LC-MS/MS, measured: Gb3 d18:1/20:0; 216 h): 10900 nM
C=CC(=O)Nc1cc(Nc2nccc(-c3cn(C)c4ccccc34)n2)c(OC)cc1N(C)CCN(C)C — IC50 (Ba/F3 EGFR 19Del/C797S; cell growth; 72 h): 869 nM
COc1cccc(Cn2nc(-c3ccc(CN)o3)c3ccccc32)c1 — IC50 (RBE; cell viability, CellTiter-Glo): 5010 nM
CC(C)NCC(O)c1ccc(NS(C)(=O)=O)cc1 (centres unmarked) — IC50 (hiPSC-derived cardiomyocytes; beat period change, field potential recording; 30 min, decoupled electrode condition): 270 nM
CC(C)c1ccc(C2C(C#N)=C3N=C(N)c4ccccc4N3C3=C2C(=O)CCC3)cc1 (centres unmarked) — IC50 (BV-2; cell count, high-content imaging; geometric mean): 21000 nM
CCNCCCn1c2c(c3cc(OC)c(OC)cc3c1=O)C(=O)c1cc3c(nc1-2)OCO3 — IC50 (CCRF-CEM leukaemia cells; cytotoxicity, MTS; 72 h): 49 ± 15 nM
Cc1c(C(=O)O)ccc2c3n(nc12)[C@@H]1[C@H](C3)N(CC2CC2)[C@@]2(C(=O)Nc3cc(Cl)ccc32)[C@H]1c1cccc(Cl)c1F — IC50 (SW982; cell proliferation, alamarBlue): 0.5 nM
OCc1ccc(-c2nn(Cc3ccccc3)c3c2CCCC3)o1 — IC50 (RBE; cell viability, CellTiter-Glo): 1520 nM
Cc1cc(Nc2ncnc3ccc(NC4=NC(C)(C)CO4)cc23)ccc1Oc1ccn2ncnc2c1 — IC50 (Ba/F3 expressing HER2 S335C; cell growth, inhibitor, CellTiter-Glo): 11.7 nM
Clc1ccc(COc2cncc(-c3cnn(C4CCNCC4)c3)c2)c(Cl)c1 — IC50 (BV-2; nuclear intensity, high-content imaging; geometric mean): 5180 nM
CS(=O)(=O)CCNCc1ccc(-c2ccc3ncnc(Nc4ccc(OCc5cccc(F)c5)c(Cl)c4)c3c2)o1 — IC50 (Ba/F3 expressing HER2 S335C; cell growth, inhibitor, CellTiter-Glo): 98.4 nM
CCN(Cc1ccc(F)cc1F)c1ccc(CO)c(Cl)c1 — IC50 (RBE; cell viability, CellTiter-Glo): 210 nM
C[C@H]1[C@H](OC(=O)CCC(=O)O)O[C@@H]2O[C@@]3(C)CC[C@H]4[C@H](C)CC[C@@H]1[C@@]24OO3 — IC50 (primary AML blasts 2; cell viability; human; 96 h): 47600 nM
COc1ccccc1OCC(O)CN1CCN(CC(=O)Nc2c(C)cccc2C)CC1 (centres unmarked) — IC50 (hiPSC-derived cardiomyocytes; beat period change, field potential recording; 30 min, coupled electrode condition): 53100 nM
O=C(c1cc(Cc2n[nH]c(=O)c3ccccc23)ccc1F)N1CCN(C(=O)C2CC2)CC1 — IC50 (SK-OV-3 BRCA2 knockout; colony formation): 9.71 nM
OCc1ccc(-c2nn(Cc3ccccn3)c3ccccc23)o1 — IC50 (RBE; cell viability, CellTiter-Glo): 290 nM
C=CC(=O)N1CCC[C@@H](n2nc(-c3ccc(Oc4ccccc4)cc3)c3c(N)ncnc32)C1 — IC50 (Rec1; calcium flux; with: anti-IgM): 1.7 nM
Cc1cc(Nc2ncc(Cl)c(Nc3ccccc3S(=O)(=O)C(C)C)n2)c(OC(C)C)cc1C1CCNCC1 — IC50 (NCI-H2228 (EML4-ALK); cell growth; 3 days): 380 ± 140 nM
COc1cc2c3c(n(CCCNCCO)c(=O)c2cc1OC)-c1nc2c(cc1C3=O)OCO2 — IC50 (CCRF-CEM leukaemia cells; cytotoxicity, MTS; 72 h): 57 ± 14 nM
N#Cc1ccc2c(CN3CCOCC3)cc(-c3ccc(C4CCC(=O)N4)cc3)nc2c1 (centres unmarked) — IC50 (mouse aortic smooth muscle cells; cell migration, scratch wound; with: CML-HSA 10 µg/mL): 12 ± 7 nM
COc1ccccc1Cn1nc(-c2ccc(CO)o2)c2ccccc21 — IC50 (RBE; cell viability, CellTiter-Glo): 440 nM
C[C@H](Nc1ccc2c(c1)OCCn1cc(N3C(=O)OC[C@H]3C(F)F)nc1-2)C(N)=O — IC50 (ESS-1; growth rate inhibition, CellTiter-Glo; 120 h): 27.5 nM
COc1cc2nccc(Oc3ccc(NC(=O)C4(C(=O)Nc5ccc(F)cc5)CC4)cc3)c2cc1OC — IC50 (NCI-H2228 (EML4-ALK); cell growth; 3 days): 5190 ± 580 nM
CCc1cc2ncc(CN3CCN(c4ccc(C(=O)NC)nc4)CC3)cc2[nH]c1=O — IC50 (SK-OV-3 BRCA2 knockout; colony formation): 0.778 nM
C=CC(=O)N1CCC([C@@H]2CCNc3c(C(N)=O)c(-c4ccc(Oc5ccccc5)cc4)nn32)CC1 — IC50 (Rec1; calcium flux; with: anti-IgM): 4.3 nM
COc1cc2c(Oc3ccc(NC(=O)C4(C(=O)Nc5ccc(F)cc5)CC4)cc3F)ccnc2cc1OCCCN1CCOCC1 — IC50 (NCI-H2228 (EML4-ALK); cell growth; 3 days): 820 ± 110 nM
COc1cc2c3c(n(CCCn4ccnc4)c(=O)c2cc1OC)-c1nc2c(cc1C3=O)OCO2 — IC50 (CCRF-CEM leukaemia cells; cytotoxicity, MTS; 72 h): 117 ± 61 nM
CCN(Cc1c(F)cccc1F)c1ccc(CO)c(Cl)c1 — IC50 (RBE; cell viability, CellTiter-Glo): 70 nM
O=C(C[C@@H](C(F)F)n1ccc(F)n1)N1CCC(O)(Cn2cnc3c(cnn3-c3ccc(F)cc3)c2=O)CC1 — IC50 (CAPAN-1; cell viability, SRB; 5 days, mean of replicates): 53.2 nM
Cc1nc(Nc2ncc(C(=O)Nc3c(C)cccc3Cl)s2)cc(N2CCN(CCO)CC2)n1 — IC50 (HPAC; cell viability, MTT; mutant KRAS primary): 3140 nM
CC(=O)C1=C(C)Nc2sc(C(=O)c3ccc(Cl)c(Cl)c3)c(N)c2C1c1cccnc1 (centres unmarked) — IC50 (BV-2; nuclear intensity, high-content imaging; geometric mean): 20100 nM
CCN(Cc1cccc(C)c1)c1ccc(CO)c(Cl)c1 — IC50 (RBE; cell viability, CellTiter-Glo): 240 nM
O=C(Nc1ccc(CN2CCOCC2)c(C(F)(F)F)c1)c1ccc(C#Cc2cccc3cnccc23)cn1 — IC50 (SUM149PT; cell viability, MTT; 72 h): > 180000 nM
C#Cc1cccc(Nc2ncnc3cc(OCCOC)c(OCCOC)cc23)c1 — IC50 (F98 rat cells; 24 h): > 100000 nM
Cc1ccc(C(=O)Nc2ccc(CN3CCN(C)CC3)c(C(F)(F)F)c2)cc1C#Cc1cnc2cccnn12 — IC50 (LS174T; WNT reporter gene, inhibitor, TCF/LEF luciferase): 619 nM
O=C(CCCC[C@H]1SC[C@H]2NC(=O)N[C@H]21)NCCOCCOCCOc1cccc(Cn2nc(-c3ccc(CO)o3)c3ccccc32)c1 — IC50 (RBE; cell viability, CellTiter-Glo): 4460 nM
C=CC(=O)N1C[C@@H](n2nc(C#Cc3c(F)cc4c(ncn4C4CC4)c3F)c(C(N)=O)c2NC)C[C@@H]1COC — IC50 (CC-LP-1 engineered to express FGFR2-PHGDH fusion; cell viability, MTT; 3 days): 2.82 nM
